Assay results pooled from the literature.
Each numbered part is a random draw from the data of one study; scales do not carry over between parts. Substitutions count along the parent as printed.

Sample 1
Target: TAR DNA-binding protein 43, full length, His tag (TARDBP, Homo sapiens, UniProt Q13148, residues 1-414)
Technique: RNA Bind-n-Seq
Molecule type: RNA
Matrix: in vitro
Concentration: 20 nM
Notes: 6-mer, flanks averaged, single round
Together with: 150 mM KCl
Relative to: input library
Reading: higher = stronger binding
Quantity: 6-mer enrichment (R)
ACUAUC: 0.545
ACAGCU: 0.636
CAGAAU: 0.688
UCUCUC: 0.539
CCACUC: 0.589
UUAUGU: 0.728
CACAAU: 0.666
AAGAUG: 0.836
UAUUCA: 0.557

Sample 2
Target: ABI1, truncated, D143A, DHFR fusion (Arabidopsis thaliana)
Technique: DHFR PCA, deep sequencing
Matrix: yeast
Notes: methotrexate growth selection, single substitutions
Together with: (+)-ABA 0.032 µM
Relative to: wild-type fitted maximum
Reading: higher = stronger binding
Quantity: relative binding score
Starting sequence: PYL1, truncated, DHFR fusion (Arabidopsis thaliana); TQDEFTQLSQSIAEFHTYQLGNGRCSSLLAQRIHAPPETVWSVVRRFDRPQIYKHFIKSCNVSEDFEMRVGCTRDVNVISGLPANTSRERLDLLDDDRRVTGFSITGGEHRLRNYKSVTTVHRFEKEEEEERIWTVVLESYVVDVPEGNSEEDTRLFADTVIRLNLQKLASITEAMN; partner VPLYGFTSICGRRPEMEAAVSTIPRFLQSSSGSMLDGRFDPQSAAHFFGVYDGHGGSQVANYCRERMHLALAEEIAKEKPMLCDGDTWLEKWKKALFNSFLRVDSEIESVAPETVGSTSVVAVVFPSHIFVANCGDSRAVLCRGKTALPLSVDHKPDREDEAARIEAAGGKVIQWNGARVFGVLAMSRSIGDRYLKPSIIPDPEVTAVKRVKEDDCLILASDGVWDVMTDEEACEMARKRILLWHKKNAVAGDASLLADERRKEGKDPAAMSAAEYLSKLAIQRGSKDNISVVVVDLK
T6H: 34.5%
C72Y: -1.06%
K168I: -5.39%
R46M: 3.74%
D92S: 5.38%
E152L: 1.75%
H55S: 10.5%
L28Q: -0.344%
E14D: 6%
A175F: -9.85%

Sample 3
Target: Interferon regulatory factor 5, full length, phosphomimetic (IRF5, Homo sapiens, UniProt Q13568-2, residues 1-514, S451D/S453D/S456D/S462D)
Technique: protein-binding microarray
Molecule type: double-stranded DNA, one strand shown
Matrix: in vitro
Concentration: 940 nM top
Notes: 60-bp whole probe
Together with: salmon DNA 0.4 mg/ml
Relative to: random background probes
Reading: higher = stronger binding
Quantity: fitted relative affinity
Shared flanks, not repeated: GCCTAGCAC … GTCTTGATTCGCTTGACGCTGCTG
GACGGTTTGGGTTTCGGGACGTGCTAG: 3.77 z-score
TTAGGTTTCCTTCTCCTTTGGTGCTAG: 1.76 z-score
GACGGACTTGGGTATCGGGACGTGCTA: 0.606 z-score
TTAGGTTGCCTTTCCCTTTAGTGCTAG: 0.288 z-score
TTAGGTTTCGGGTAACGGTTAGTGCTA: 11.4 z-score
GACGGACTGGGTTTCGGAACGTGCTAG: 3.03 z-score
TTAGGTATCGGTTTAGGTTAGTGCTAG: 10.6 z-score
GACGGTATCGGGAATGGGGACGTGCTA: 3.34 z-score
GACGCTTTCCTTTTCCTGACGTGCTAG: 1.43 z-score
GACGATCTCAGTTTCGAGATGTGCTAG: 3.63 z-score
CTCTACATGTGTTTAAGAATGTGCTAG: -0.186 z-score
GACGGTTCCCTACTGCTGACGTGCTAG: 0.111 z-score
TTAGGACTGCCTCTCCTTTAGTGCTAG: -0.265 z-score
GATGATATCAGTTTCGAGACGTGCTAG: 4.06 z-score
GGCACCCAAGCTCTTGTTTGGTGCTAG: -0.325 z-score

Sample 4
Target: RNA binding protein fox-1 homolog 2, RRM domain, GST-SBP tag (RBFOX2, Homo sapiens, UniProt O43251-10, residues 100-194)
Technique: RNA Bind-n-Seq
Molecule type: RNA
Matrix: in vitro
Concentration: 365 nM
Notes: natural RNA segment, single round, ends assumed
Relative to: no-protein control
Reading: higher = stronger binding
Quantity: RBNS enrichment (R)
Shared flanks, not repeated: GGGAGUUCUACAGUCCGACGAUC … UGGAAUUCUCGGGUGCCAA
Target sequence (chain): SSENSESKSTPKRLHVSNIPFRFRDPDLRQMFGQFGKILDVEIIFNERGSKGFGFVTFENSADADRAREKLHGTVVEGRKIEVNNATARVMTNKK
AGGCCCCUGACAGUGGAAACAGAAGAUGCUAAGCUGUCAUAGGUGGAGCAGGAUCCUAAGGACGCACAAUAUCAGUUGUGCGUGCUGUAAAGGGACAAACCGAGGAAGUA: 0.291
GACUGUUUUAUAAAGAAAUGGAAAAAAGUGAAAUAAAAAAUAUGUUGAAUCAGAUUUUUUAAAAGGGGUAUUUGUUUUUUUAUAACAGGUAUUGAAACAAGUUAACUUGC: 0.67
GACUGAGUUAUGGGAGAAGGGGACAUAUUUGUGGCCAAAAUGAUACUAACCAAAGGGGCUUCCUUGUCAGGGCCUGGUGGAGUUGGUGGGUCAUCGGGGCUCACUGCCUC: 0.695
GAUUUCAGGAGAGAGCAGCUUUGAGGAAUGUGGAAAAUCAUAAUUGCCGUCUGGACCAUUGAUUGAUUGUGACCAGUAGCAGAAGGGUGCCUGUUACAUAGAGAGGCUCC: 1.19
UGCUAACCUUUGCACAUACUCUGUUUUUACUUUGAUGGCUUCUCCAGGUUUUUGUCAGGUACCACAUGUAGAAUUACAUUUUUCUUAAAAGAUUGAUCAUCCAAAUGGCA: 1.64
GCAACUGUAGUCAUCUUAAAGGCUUCUCAUCCACUGUGCUUCUUAAUGUGUAAUUAAAGUGAGGAGAAAUUAAAUACUCUGAGGGCGUUUUAUAUAAUAAAUUCGUGAAG: 0.291
AACAAAACUGAUACAAUCUGCUGCCUAUUGUUUGAGGACCCACUGAGUAAUGUUUGUGGCUAUUAAAAUGCAUUAUCAUUAUCCACUUCAAUAGCAUUUUCCUCUGCUUU: 0.608
GCUGACCCAGUCCCUGGGGGAAGCCCUGGAUUUCAGAAAGAGCAAGUCUGGAUCUGGGACCCUUUCCUUCCUUCCCUGGCUUGUAACUCCACCAACCCAUCAGAAGGAGA: 0.311

Sample 5
Target: Fragile X messenger ribonucleoprotein 1, C-terminal low-complexity region (Fmr1, Mus musculus, UniProt P35922)
Technique: RNA Bind-n-Seq
Molecule type: RNA
Matrix: in vitro
Concentration: 200 nM
Notes: whole 134-nt RNA, ends assumed
Together with: 150 mM LiCl
Relative to: input library
Reading: higher = stronger binding
Quantity: log2 enrichment
Library: 7-deaza-guanosine replaces G
Shared flanks, not repeated: GGGAGUUCUACAGUCCGACGAUC … UGGAAUUCUCGGGUGUCAAGG
UGGGAGGUGGAUUUUGUUUAUUUUUUUAGCUCAUUUCCAGGGGUGGGAAUUUUUUUUUAAUAUGUGUCCUGAAUAAAGUUGUUUUUGAAA: 0.274
UCAAGUCCUGUGCUACACAUCGUAUGUACCGAAUCGGGAGGGUUUUUGGGAGGGAAAGUAUUAUGUUACGCCGUUCGGAUCUGCACUUCC: -0.875
CCUGUGCUACACAUCGUAUGUACCGAAUCAAACCCCCCCAAAUUUUUUUAAACCCCCAAAAAAGUAUUAUGUUACGCCGUUCGGAUCUGC: 1.61
UCCUGUGCUACACAUCGUAUGUACCGAAUCGGGGAAAAAAGGAAAAAAGGGAAAAAAGGAAAGUAUUAUGUUACGCCGUUCGGAUCUGCA: 0.108
ACCAUGCAGGUGGGCAUCUUGGGGAAGUGGGGCAAGGGGGGGAUAGGGAGGGGGGUAACACUUUGGGAACAGGUGGUCCCAGGUCGUUUC: 1.5
AGUCCUGUGCUACACAUCGUAUGUACCGAAUCGGGUUUGGGAAAAAAAGGGAAAGGGAAAGUAUUAUGUUACGCCGUUCGGAUCUGCACU: -1.47
UGGGAGGUGGAUUUUGUUUAUUUUUUUAACUCAUUUCCAGGGGUGGGAAUUUUUUUUUAAUAUGUGUCAUGAAUAAAGUUGUUUUUGAAA: -0.389

Sample 6
Target: Histone acetyltransferase KAT6A, winged helix 1, GST fusion (KAT6A, Homo sapiens, UniProt Q92794, residues 1-85)
Technique: protein binding microarray
Molecule type: double-stranded DNA, one strand shown
Matrix: in vitro
Concentration: not given
Notes: 8-mer, flanks averaged, mean of 2 arrays, mostly near background
Relative to: not given
Reading: higher = stronger binding
Quantity: E-score
Target sequence (chain): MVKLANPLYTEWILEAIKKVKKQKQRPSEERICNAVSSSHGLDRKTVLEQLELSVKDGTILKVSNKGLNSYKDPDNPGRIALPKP
TCATTAAA: -0.0804
CCATCCCG: 0.219
TATAGCCA: -0.0442
GCAATGGC: 0.0279
CGCTCACC: 0.203
AGCTCCAT: -0.144
AAGAGTCT: -0.176
ACCAGAAG: -0.199
GCTAGATA: -0.0603
ACGCTCGG: 0.288
TAAACGCA: 0.0793
AAAGCCGG: 0.342
CGGGAAGA: 0.322

Sample 7
Target: ATP-dependent RNA helicase DDX3X, helicase core (DDX3X, Homo sapiens, UniProt O00571, residues 132-607)
Chain of UniProt O00571 (132-607, looked up): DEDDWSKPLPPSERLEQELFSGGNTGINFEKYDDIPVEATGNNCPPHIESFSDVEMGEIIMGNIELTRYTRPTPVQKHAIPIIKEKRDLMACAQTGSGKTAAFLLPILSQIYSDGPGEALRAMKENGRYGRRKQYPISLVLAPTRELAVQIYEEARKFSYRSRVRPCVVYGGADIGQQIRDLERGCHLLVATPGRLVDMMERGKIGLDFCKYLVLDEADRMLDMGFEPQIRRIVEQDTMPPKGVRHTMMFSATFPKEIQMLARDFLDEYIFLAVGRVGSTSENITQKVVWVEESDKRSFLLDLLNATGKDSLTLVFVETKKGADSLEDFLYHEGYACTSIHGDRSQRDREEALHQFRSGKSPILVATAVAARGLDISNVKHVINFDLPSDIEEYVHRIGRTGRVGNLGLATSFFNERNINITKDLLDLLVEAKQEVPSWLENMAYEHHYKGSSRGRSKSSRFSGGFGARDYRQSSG
Technique: RNA Bind-n-Seq
Molecule type: RNA
Matrix: in vitro
Concentration: 90 pmol
Notes: 4-mer, random 30-nt RNA, single round
Together with: 3 µM DMDA-PatA, 2 mM ADP, 2 mM phosphate
Relative to: input library
Reading: higher = stronger binding
Quantity: 4-mer enrichment
UAAG: 1.19 fold
CCAC: 1.09 fold
ACAU: 0.933 fold
UCCC: 1.1 fold
CCCG: 1.04 fold
AUUC: 0.878 fold
CAAU: 0.928 fold
ACCC: 1.1 fold
UUUU: 1.13 fold
AGCU: 0.799 fold
UCUG: 0.821 fold
CCAA: 1.05 fold
AUGC: 0.89 fold
AGCC: 0.896 fold
GAAC: 0.908 fold
CGGC: 0.866 fold
